Published values pooled from the literature.
Protocols differ between the studies behind these lines. Converted amounts (≈) assume the structure as drawn.
Organism: Mycolicibacterium smegmatis

`Cc1nc2ccc(Br)cn2c1C(=O)NCc1ccc2oc(-c3ccc(Cl)cc3)nc2c1` has an MIC90 of > 100 µM.
`CC(C)[C@H]1NC(=O)[C@H](Cc2ccccc2)NC(=O)[C@@H](C(C)C)NC(=O)[C@@H](C)NC(=O)[C@H](C)NC(=O)[C@@H](Cc2c(-c3ccc(-c4ccc5ccccc5c4)cc3)[nH]c3ccccc23)NC(=O)[C@@H](CO)NC1=O` has an MIC90 of > 100 µM.
`Cc1nc2ccc(C(F)(F)F)cn2c1C(=O)NCc1ccc2oc(-c3ccc(Cl)cc3)nc2c1` has an MIC90 of > 100 µM.
For `CC(C)[C@H]1NC(=O)[C@H](Cc2ccccc2)NC(=O)[C@@H](C(C)C)NC(=O)[C@@H](C)NC(=O)[C@H](CO)NC(=O)[C@@H](Cc2c(-c3ccc(-c4ccccc4)cc3)[nH]c3ccccc23)NC(=O)[C@@H](CO)NC1=O`, the MIC90 was > 100 µM.
With `Cc1ccc(CNC(=O)Cc2c(C)nc3ccc(C)cn23)cc1` the inhibition zone was 20 mm (microbial growth; MC2155; 2 mM, 20 h).
`CC(C)[C@H]1NC(=O)[C@H](Cc2ccccc2)NC(=O)[C@@H](C(C)C)NC(=O)[C@@H](C)NC(=O)[C@H](CO)NC(=O)[C@@H](Cc2c(-c3ccc(-c4ccc5ccccc5c4)cc3)[nH]c3ccccc23)NC(=O)[C@@H](C)NC1=O` has an MIC90 of 100 µM (≈ 96.3 µg/mL).
`Cc1ccc2nc(C)c(C(=O)C(=O)NCc3ccccc3)n2c1` has an MIC of > 128 µM (microbial growth, broth dilution).
The MIC50 of `NC1=NC2(CCCCC2)N(c2ccc(OCc3cn(CCCCOc4ccc5ccc(=O)oc5c4)nn3)cc2)C(N)=N1` is reported as 0.7 µM (≈ 0.399 µg/mL) (microbial growth; ATCC700084 MC2155).
The inhibition zone of `Cc1ccc(-c2nc3ccc(C)cn3c2C(=O)C(=O)NCc2ccc(N(C)C)cc2)cc1` is reported as 0 mm (microbial growth; MC2155; 2 mM, 20 h).
`CCc1nc2ccc(OC(F)(F)F)cn2c1C(=O)NCc1ccc2oc(-c3ccc(Cl)cc3)nc2c1` gave an MIC90 of > 100 µM.
`CC(C)[C@H]1NC(=O)[C@H](Cc2ccccc2)NC(=O)[C@@H](C(C)C)NC(=O)[C@@H](C)NC(=O)[C@H](CO)NC(=O)[C@@H](Cc2c(-c3ccc(-c4ccccc4)c4ccccc34)[nH]c3ccccc23)NC(=O)[C@@H](CO)NC1=O` has an MIC90 of > 100 µM.
The MIC of `CCc1nc2cc(C(F)(F)F)ccn2c1C(=O)NCc1ccc2oc(-c3ccc(Cl)cc3)nc2c1` is reported as > 50 µM (72 h).
For `CCc1ccn2c(C(=O)N(C)Cc3ccccc3)c(C)nc2c1`, the inhibition zone was 0 mm (microbial growth; MC2155; 2 mM, 20 h).
For `CC(C)[C@H]1NC(=O)[C@H](Cc2ccc(O)cc2)NC(=O)[C@@H](C(C)C)NC(=O)[C@@H](C)NC(=O)[C@H](CO)NC(=O)[C@@H](Cc2c(-c3ccc(-c4ccc5ccccc5c4)cc3)[nH]c3ccccc23)NC(=O)[C@@H](CO)NC1=O`, the MIC90 was 100 µM (≈ 99.5 µg/mL).
`Cc1ccn2c(C(=O)NCc3ccccc3)c(C)nc2c1` gave an MIC90 of > 100 µM.
With `Cc1ccc(-c2nc3ccc(C)cn3c2CC(=O)NCc2ccc(N(C)C)cc2)cc1` the MIC was > 50 µM (microbial growth, broth dilution).

Repeated from above:
`Cc1ccn2c(C(=O)NCc3ccccc3)c(C)nc2c1` gave an MIC90 of > 100 µM.
